Assay results pooled from the literature.
Lines come from different studies, so protocols differ. ± marks the error that the study gave.

CC[C@H](C)[C@@H]1NC(=O)[C@@H]2CCCN2C(=O)[C@H](CC(C)C)NC(=O)[C@H](CC(C)C)NC(=O)CNC(=O)[C@@H](NC(=O)[C@@H](NC(=O)[C@H](CC(=O)O)NC(=O)CNC(=O)[C@@H](NC(=O)[C@H](C)NC(=O)CNC(=O)[C@H](CCCCN)NC(=O)[C@H](CC(C)C)NC(=O)[C@H](CC(C)C)NC(=O)[C@H](CCCCN)NC(=O)CNC(=O)[C@@H](NC(=O)[C@@H](N)CC(C)C)C(C)C)C(C)C)C(C)C)CSSC[C@@H](C(=O)O)NC1=O — result for “log2 fold change”: -1.3 (RNA-seq, refers to: Cxcr4; mouse, traumatic brain injury model, frontal cortex and hippocampus; dose not given; reference: TBI alone).
CCOP(=S)(OCC)SCCSCC gave an IC50 of greater than 4 µg/mL (nanobody A4; binding, ic-ELISA; added: H1-OVA coating antigen).
CO/N=C1\C[C@]2(C[C@@H]3C[C@@H](C/C=C(\C)C[C@@H](C)/C=C/C=C4\CO[C@@H]5[C@H](O)C(C)=C[C@@H](C(=O)O3)[C@]45O)O2)O[C@H](/C(C)=C/C(C)C)[C@H]1C gave an IC50 of 31100 ± 2600 nM (LXRalpha; cells).
The IC50 of CC[C@H](C)[C@@H]1NC(=O)[C@H]([C@@H](C)O)NC(=O)CNC(=O)[C@H](CCC(=O)O)NC(=O)[C@H](CCCCN)NC(=O)[C@H](CC(C)C)NC(=O)[C@H](Cc2ccccc2)NC(=O)[C@H](CCCCN)NC(=O)[C@@H]2CSSC[C@H](NC(=O)[C@@H](N)CCC(=O)O)C(=O)N[C@@H](CCC(=O)O)C(=O)N[C@@H](CO)C(=O)NCC(=O)N3CCC[C@H]3C(=O)N[C@H]3CSSC[C@@H]4NC(=O)[C@H](Cc5ccc(O)cc5)NC(=O)[C@H](CC(=O)O)NC(=O)[C@H](CC(=O)O)NC(=O)[C@H](CCSC)NC(=O)[C@H](CC(=O)O)NC(=O)[C@H](CC(=O)O)NC(=O)CNC(=O)[C@H](CCCNC(=N)N)NC(=O)[C@H](C)NC(=O)[C@H](CCCNC(=N)N)NC(=O)[C@H](CCCCN)NC(=O)[C@H](CSSC[C@@H](C(=O)N5CCC[C@H]5C(=O)N[C@@H](CCCNC(=N)N)C(=O)N[C@@H](CC(N)=O)C(=O)N5CCC[C@H]5C(=O)N[C@@H](Cc5c[nH]cn5)C(=O)N[C@@H](CCCCN)C(=O)NCC(=O)N5CCC[C@H]5C(=O)N[C@@H](C)C(=O)N[C@H](C(=O)O)[C@@H](C)O)NC(=O)[C@H](CC(=O)O)NC(=O)[C@H](CSSC[C@H](NC3=O)C(=O)N[C@@H](CCCNC(=N)N)C(=O)N[C@@H](CC(N)=O)C(=O)N2)NC(=O)[C@H]([C@@H](C)O)NC(=O)[C@H](CCCCN)NC(=O)CNC(=O)[C@H](CC(N)=O)NC4=O)NC1=O is reported as 3.2 ± 2.7 nM (integrin αvβ3 (human); cell adhesion to vitronectin, inhibitor; K562 expressing αvβ3; 2 h, 37 °C).
COc1cc(Nc2ncc(F)c(Nc3ccc4c(n3)NC(=O)C(C)(C)O4)n2)cc(OC)c1OC gave an IC50 of greater than 10000 nM (GABAA receptor chloride channel; binding; added: TBOB).
The IC50 of CO[C@H]1C[C@H](O[C@H]2[C@H](C)O[C@@H](O[C@@H]3/C(C)=C/C[C@@H]4C[C@@H](C[C@]5(C=C[C@H](C)[C@@H](C6CCCCC6)O5)O4)OC(=O)[C@@H]4C=C(C)[C@@H](O)[C@H]5OC/C(=C\C=C\[C@@H]3C)[C@]54O)C[C@@H]2OC)O[C@@H](C)[C@@H]1O is reported as 29900 ± 4680 nM (LXRalpha; cells).
With O=C(c1ccc(Cl)cc1)N1CCN2C(=O)N(OC(=O)N3CCOc4ccccc43)C(=O)C2C1 (stereo not shown) the median ratio was 1.12 (Dipeptidyl peptidase 2 (Homo sapiens, UniProt Q9UHL4); enzyme activity, inhibitor, MS-based ABPP; SW-620 in situ; 10 µM, 2 h, 37 °C; reference: compound over DMSO, lower = stronger inhibition).
For C[C@H]1N=C(c2ccccc2F)c2cc(Br)ccc2-n2cnc(C(=O)O)c21, the IC50 was 26.3 nM (rat brain GABA-A receptor; [3H]flunitrazepam binding; rat brain extract).
With CCOP(=S)(OCC)Oc1nc(Cl)c(Cl)cc1Cl the IC50 was greater than 10000 nM (nanobody A4; binding, ic-ELISA).
CCOC(=O)c1ccc(OC(=O)CCCCCN=C(N)N)cc1 has an IC50 of 32.3 nM (trypsin (human); enzyme activity, inhibitor).
The IC50 of CCOP(=S)(OCC)Oc1ccc2c(C)c(Cl)c(=O)oc2c1 is reported as 246 nM (nanobody A4; binding, ic-ELISA).
The tissue uptake of CC[C@H](C)[C@H](NC(=O)[C@H](Cc1ccccc1)NC(=O)[C@H](CCC(=O)O)NC(=O)[C@H](CCCNC(=N)N)NC(=O)[C@H](C)NC(=O)[C@H](C)NC(=O)[C@H](CCC(N)=O)NC(=O)[C@H](CCC(=O)O)NC(=O)[C@H](CCC(=O)O)NC(=O)[C@H](CC(C)C)NC(=O)[C@H](Cc1ccc(O)cc1)NC(=O)[C@H](CO)NC(=O)[C@H](CO)NC(=O)[C@@H](NC(=O)[C@H](CC(=O)O)NC(=O)[C@H](CO)NC(=O)[C@@H](NC(=O)[C@H](Cc1ccccc1)NC(=O)[C@@H](NC(=O)CNC(=O)[C@H](CCC(=O)O)NC(=O)[C@H](C)NC(=O)CCc1c[nH]cn1)[C@@H](C)O)[C@@H](C)O)C(C)C)C(=O)N[C@@H](C)C(=O)N[C@@H](Cc1c[nH]c2ccccc12)C(=O)N[C@@H](CC(C)C)C(=O)N[C@H](C(=O)N[C@@H](CCCNC(=N)N)C(=O)NCC(=O)N[C@@H](CCCNC(=N)N)C(=O)N[C@@H](CCCCNC(=O)COCCOCCNC(=O)COCCOCCNC(=O)CC[C@H](NC(=O)CCCCCCCCCCCCCCCCC(=O)O)C(=O)O)C(=O)NCC(=O)NCC(=O)N[C@@H](CO)C(=O)N[C@@H](CCCCNc1c(NCCCCCN(O)C(=O)CCC(=O)NCCCCCN(O)C(=O)CCC(=O)NCCCCCN(O)C(C)=O)c(=O)c1=O)C(=O)O)C(C)C [zirconium-89 labelled] is reported as 0.3 %ID/g (ex vivo gamma counting; rat, spleen; subcutaneous, 3 nmol/kg, 168 h, added: [89Zr]-labelled peptide).
COc1cc2c(Oc3ccc4[nH]c(C)cc4c3F)ccnc2cc1OCC1(N)CC1: “grade 3 sinus tachycardia” 0% (paediatric recurrent refractory sarcoma; 8 mg/kg).

Some of these lines once more:
With CCOP(=S)(OCC)Oc1nc(Cl)c(Cl)cc1Cl the IC50 was greater than 10000 nM (nanobody A4; binding, ic-ELISA).
CCOC(=O)c1ccc(OC(=O)CCCCCN=C(N)N)cc1 has an IC50 of 32.3 nM (trypsin (human); enzyme activity, inhibitor).
